# Published values collected from several papers.
# Numbered parts are unrelated; each lists some results of a single study. Several values in a cell are separate wells, animals, samples, runs or records.
# Sequence of UniProt O95747 (whole entry, looked up): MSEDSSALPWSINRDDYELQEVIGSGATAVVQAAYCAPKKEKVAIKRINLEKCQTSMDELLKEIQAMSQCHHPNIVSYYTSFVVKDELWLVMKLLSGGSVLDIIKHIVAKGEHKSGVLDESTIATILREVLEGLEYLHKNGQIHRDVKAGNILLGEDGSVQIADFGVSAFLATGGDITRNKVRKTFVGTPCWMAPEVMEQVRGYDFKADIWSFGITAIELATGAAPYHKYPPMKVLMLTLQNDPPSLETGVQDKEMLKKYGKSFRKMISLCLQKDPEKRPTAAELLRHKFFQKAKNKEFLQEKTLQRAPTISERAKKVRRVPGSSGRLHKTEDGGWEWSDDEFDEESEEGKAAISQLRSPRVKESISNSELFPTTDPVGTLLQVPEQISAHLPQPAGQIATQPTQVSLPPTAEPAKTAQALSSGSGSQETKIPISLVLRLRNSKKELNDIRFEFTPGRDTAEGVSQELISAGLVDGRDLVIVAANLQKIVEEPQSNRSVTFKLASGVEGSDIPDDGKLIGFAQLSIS
# Sequence of UniProt P50750 (whole entry, looked up): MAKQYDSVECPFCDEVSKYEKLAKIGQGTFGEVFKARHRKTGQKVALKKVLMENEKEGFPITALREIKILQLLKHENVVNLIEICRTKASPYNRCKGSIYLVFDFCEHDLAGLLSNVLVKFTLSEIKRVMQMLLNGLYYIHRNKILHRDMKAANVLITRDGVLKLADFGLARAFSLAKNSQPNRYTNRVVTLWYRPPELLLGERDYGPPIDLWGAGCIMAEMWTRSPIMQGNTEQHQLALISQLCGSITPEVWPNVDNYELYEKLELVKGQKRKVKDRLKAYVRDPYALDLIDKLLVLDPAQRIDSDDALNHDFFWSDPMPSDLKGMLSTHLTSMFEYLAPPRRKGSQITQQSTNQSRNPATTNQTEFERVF
# Sequence of UniProt P42680 (whole entry, looked up): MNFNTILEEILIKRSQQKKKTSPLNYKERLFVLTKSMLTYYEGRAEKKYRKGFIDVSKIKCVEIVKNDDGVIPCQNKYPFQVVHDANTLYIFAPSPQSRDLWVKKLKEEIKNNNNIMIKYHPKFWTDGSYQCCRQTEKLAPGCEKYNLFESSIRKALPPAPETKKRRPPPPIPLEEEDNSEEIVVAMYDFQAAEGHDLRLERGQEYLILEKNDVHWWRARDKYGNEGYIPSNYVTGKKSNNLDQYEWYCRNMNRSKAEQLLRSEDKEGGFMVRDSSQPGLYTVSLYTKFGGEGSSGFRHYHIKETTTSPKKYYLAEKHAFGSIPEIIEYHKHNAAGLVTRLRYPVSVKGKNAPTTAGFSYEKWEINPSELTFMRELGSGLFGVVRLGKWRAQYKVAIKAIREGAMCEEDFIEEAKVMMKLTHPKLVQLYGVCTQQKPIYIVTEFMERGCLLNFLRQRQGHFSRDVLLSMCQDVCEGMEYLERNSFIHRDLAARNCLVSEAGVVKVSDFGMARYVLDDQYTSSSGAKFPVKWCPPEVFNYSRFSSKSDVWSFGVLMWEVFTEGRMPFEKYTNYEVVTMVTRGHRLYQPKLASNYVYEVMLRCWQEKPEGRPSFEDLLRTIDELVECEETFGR
# Sequence of UniProt P50613 (whole entry, looked up): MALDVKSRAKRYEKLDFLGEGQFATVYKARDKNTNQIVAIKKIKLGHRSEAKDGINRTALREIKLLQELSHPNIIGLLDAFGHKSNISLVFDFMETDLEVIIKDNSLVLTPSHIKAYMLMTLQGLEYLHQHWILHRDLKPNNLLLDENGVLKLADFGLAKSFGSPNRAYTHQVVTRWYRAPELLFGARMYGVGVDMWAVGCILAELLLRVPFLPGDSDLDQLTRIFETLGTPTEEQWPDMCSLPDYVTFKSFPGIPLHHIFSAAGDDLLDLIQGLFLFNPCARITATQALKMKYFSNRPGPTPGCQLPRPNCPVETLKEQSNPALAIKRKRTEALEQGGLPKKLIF

# Study 1
# Target: DNA polymerase theta, ATPase domain (POLQ, Homo sapiens, UniProt O75417)
# Sequence of UniProt O75417 (whole entry, unmodified, looked up): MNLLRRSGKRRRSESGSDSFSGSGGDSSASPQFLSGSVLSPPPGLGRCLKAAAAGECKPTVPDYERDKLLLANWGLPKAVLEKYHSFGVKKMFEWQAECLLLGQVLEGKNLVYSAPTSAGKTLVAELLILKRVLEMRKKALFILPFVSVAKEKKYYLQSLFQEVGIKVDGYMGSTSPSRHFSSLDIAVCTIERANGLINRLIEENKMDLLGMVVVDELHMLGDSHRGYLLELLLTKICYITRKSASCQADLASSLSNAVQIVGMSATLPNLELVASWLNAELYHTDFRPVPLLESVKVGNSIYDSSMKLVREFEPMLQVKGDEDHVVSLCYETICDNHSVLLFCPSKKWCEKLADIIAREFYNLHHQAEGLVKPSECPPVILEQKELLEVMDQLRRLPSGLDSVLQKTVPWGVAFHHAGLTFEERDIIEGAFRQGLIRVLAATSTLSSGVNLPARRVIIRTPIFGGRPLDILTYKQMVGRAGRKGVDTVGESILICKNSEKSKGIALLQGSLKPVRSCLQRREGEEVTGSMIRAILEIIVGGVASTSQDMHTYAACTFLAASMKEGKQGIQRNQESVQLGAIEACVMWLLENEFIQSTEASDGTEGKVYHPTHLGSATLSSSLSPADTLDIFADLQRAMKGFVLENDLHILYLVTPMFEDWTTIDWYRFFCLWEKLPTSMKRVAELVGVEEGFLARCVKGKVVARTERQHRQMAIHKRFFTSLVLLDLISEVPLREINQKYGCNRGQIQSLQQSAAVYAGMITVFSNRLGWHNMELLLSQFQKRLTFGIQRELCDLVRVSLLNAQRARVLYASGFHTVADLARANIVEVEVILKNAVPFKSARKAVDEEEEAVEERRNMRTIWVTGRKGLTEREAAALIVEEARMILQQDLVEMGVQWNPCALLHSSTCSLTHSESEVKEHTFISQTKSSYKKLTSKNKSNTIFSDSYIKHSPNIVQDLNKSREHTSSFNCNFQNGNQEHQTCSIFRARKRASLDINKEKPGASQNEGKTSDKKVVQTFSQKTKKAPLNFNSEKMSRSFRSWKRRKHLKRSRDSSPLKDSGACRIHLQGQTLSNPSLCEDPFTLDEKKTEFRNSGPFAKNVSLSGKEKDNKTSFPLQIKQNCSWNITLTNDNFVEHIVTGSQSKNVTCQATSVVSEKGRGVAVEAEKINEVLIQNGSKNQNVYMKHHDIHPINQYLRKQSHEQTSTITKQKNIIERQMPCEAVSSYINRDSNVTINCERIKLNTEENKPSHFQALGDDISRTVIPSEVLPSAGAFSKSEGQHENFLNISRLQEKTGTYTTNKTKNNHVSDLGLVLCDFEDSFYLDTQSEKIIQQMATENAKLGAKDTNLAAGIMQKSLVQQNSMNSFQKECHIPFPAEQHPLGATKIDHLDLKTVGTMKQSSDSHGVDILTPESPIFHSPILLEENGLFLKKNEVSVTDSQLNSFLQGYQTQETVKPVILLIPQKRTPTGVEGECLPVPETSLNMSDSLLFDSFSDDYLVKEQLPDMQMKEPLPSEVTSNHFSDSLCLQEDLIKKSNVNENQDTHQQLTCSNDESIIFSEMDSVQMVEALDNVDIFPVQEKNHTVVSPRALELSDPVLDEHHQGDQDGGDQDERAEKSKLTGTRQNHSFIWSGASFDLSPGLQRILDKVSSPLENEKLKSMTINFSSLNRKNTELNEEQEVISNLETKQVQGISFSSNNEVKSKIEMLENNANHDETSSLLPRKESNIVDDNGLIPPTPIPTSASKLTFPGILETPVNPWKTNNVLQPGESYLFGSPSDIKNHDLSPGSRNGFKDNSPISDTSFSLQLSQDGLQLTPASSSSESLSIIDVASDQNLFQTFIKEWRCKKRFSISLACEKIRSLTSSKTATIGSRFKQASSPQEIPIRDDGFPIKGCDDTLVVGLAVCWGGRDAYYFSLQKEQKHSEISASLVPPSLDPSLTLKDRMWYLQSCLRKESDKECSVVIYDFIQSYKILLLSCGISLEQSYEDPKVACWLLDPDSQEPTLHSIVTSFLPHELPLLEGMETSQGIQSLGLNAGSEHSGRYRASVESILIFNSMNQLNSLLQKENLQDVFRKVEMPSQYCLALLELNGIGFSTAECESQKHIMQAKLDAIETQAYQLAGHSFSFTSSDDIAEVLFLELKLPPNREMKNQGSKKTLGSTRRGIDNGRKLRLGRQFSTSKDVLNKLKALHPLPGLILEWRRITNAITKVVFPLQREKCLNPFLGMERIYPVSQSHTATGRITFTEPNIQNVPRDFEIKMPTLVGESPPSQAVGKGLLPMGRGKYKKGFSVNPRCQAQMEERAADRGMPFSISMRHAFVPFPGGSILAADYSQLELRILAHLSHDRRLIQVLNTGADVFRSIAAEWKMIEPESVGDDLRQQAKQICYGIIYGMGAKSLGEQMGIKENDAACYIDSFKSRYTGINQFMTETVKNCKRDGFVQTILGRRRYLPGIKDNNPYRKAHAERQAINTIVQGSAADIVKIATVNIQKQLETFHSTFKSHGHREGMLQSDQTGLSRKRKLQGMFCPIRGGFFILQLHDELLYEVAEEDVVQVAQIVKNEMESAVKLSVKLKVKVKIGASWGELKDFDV
# Observed: enzyme activity
# Mode: inhibitor
# Concentration: 77 µM
# Reference: untreated
SMILES,remaining activity
C[N+]1(C)CCN(c2ccccc2)CC1,97.2%
CNCCc1c[nH]c2ccc(O)cc12,98.6%
CN(C)CCc1ccc(O)cc1,94.4%
CCC1(c2ccc(N)cc2)CCC(=O)NC1=O (stereo not drawn),92.1%
NC(=O)CI,108%
Cc1cccc(C(C)c2c[nH]cn2)c1C (stereo not drawn),103%
CN(N=O)c1ccc(O)c(O)c1,52.4%
CCN(CC)C(=O)c1ccc(C2=CC3(CCNCC3)Oc3cccc(O)c32)cc1,98%

# Study 2
# Cell line: mouse MPNST tumor cells
# Method: high-content nuclear imaging
# Measured: cell number
# Concentration: 10 µM
# Time: 12 h
# Notes: mean of 2 replicates
# Reference: plate mean
# Reading: higher = more cells
Structure (SMILES),nuclei count
CN(C)c1ccc(/C=C2\CCCN=C2c2cccnc2)cc1,0.107 z-score
CO[C@H]1CC=C2CCN3CCC4=C(CC(=O)OC4)[C@]23C1,1.68 z-score
CCCN1C[C@H](CSC)C[C@@H]2c3cccc4[nH]cc(c34)C[C@H]21,1.09 z-score
Cc1[nH]c2ccc(Cl)cc2c1C1=CCNCC1,2.77 z-score
C=C1CC[C@@]2(O)[C@H]3Cc4ccc(O)c5c4[C@@]2(CCN3CC2CC2)[C@H]1O5,0.283 z-score and 0.618 z-score
CCCN(CCC)CCc1ccc(OC)c(OCCc2ccccc2)c1,1.84 z-score
C=C(C)C1CCC(C)=CC1c1c(OC)cc(C)cc1OC (stereo not drawn),1.39 z-score
CCOC(=O)c1ccc(-c2ccc(OC(=O)N(C)Cc3cccc(-c4ccncc4)c3)cc2)cc1,0.182 z-score

# Study 3
# Cell line: HEK-293T
# Observed: pseudovirus infection
# Method: FDA-approved drug library counter-screen
# Organism: VSV pseudotyped with VSV-G
# Concentration: 10 µM
# Time: 16 h
# Reference: vehicle-treated
SMILES,GFP-positive cells [%]
Cc1cc(-c2ccc(/N=N/c3ccc4c(S(=O)(=O)O)cc(S(=O)(=O)O)c(N)c4c3O)c(C)c2)ccc1/N=N/c1ccc2c(S(=O)(=O)O)cc(S(=O)(=O)O)c(N)c2c1O,33
CCCCN(CCCC)CC(O)c1cc(Cl)cc2c1-c1ccc(Cl)cc1/C2=C/c1ccc(Cl)cc1 (stereo not drawn),115
CCCCCCCCCCCCCCCCOP(=O)([O-])OCC[N+](C)(C)C,110
CCOC(=O)[C@H](CCc1ccccc1)N[C@@H](C)C(=O)N1[C@H](C(=O)O)C[C@@H]2CCC[C@@H]21,111
O=C(O)[C@@H](S)[C@@H](S)C(=O)O,112
CN(Cc1cnc2nc(N)nc(N)c2n1)c1ccc(C(=O)N[C@@H](CCC(=O)O)C(=O)O)cc1,16.5
O=C(OOC(=O)c1ccccc1)c1ccccc1,87
CO[C@H]1C(=O)[C@]2(C)[C@@H](OC)C[C@H]3OC[C@@]3(OC(C)=O)[C@H]2[C@H](OC(=O)c2ccccc2)[C@]2(O)C[C@H](OC(=O)[C@H](O)[C@@H](NC(=O)OC(C)(C)C)c3ccccc3)C(C)=C1C2(C)C,79
CC(=O)Oc1ccccc1C(=O)O,142
CCn1cc(C(=O)O)c(=O)c2cc(F)c(N3CCNC(C)C3)c(F)c21 (stereo not drawn),100
Cc1ccc(Sc2ccccc2N2CCNCC2)c(C)c1,152
CCOC(=O)C(C)(C)Oc1ccc(Cl)cc1,117
Nc1nc(=O)c2nc(CNc3ccc(C(=O)N[C@@H](CCC(=O)O)C(=O)O)cc3)cnc2[nH]1,116
N[C@@H](Cc1cc(I)c(Oc2ccc(O)c(I)c2)c(I)c1)C(=O)O,136
CN(C/C=C/C#CC(C)(C)C)Cc1cccc2ccccc12,94.6
C[C@]12CC[C@@H]3c4ccc(OC(=O)c5ccccc5)cc4CC[C@H]3[C@@H]1CC[C@@H]2O,103
CN(CCOc1ccc(CC2SC(=O)NC2=O)cc1)c1ccccn1 (stereo not drawn),98.6
CC(C)C[C@H](CN)CC(=O)O,95.2
O=c1[nH]c2ccccc2n1C1CCN(CCCC(c2ccc(F)cc2)c2ccc(F)cc2)CC1,117
CCOC(=O)[C@H](CCc1ccccc1)N[C@@H](C)C(=O)N1CCC[C@H]1C(=O)O,107
Cc1cc(/C=C/C#N)cc(C)c1Nc1ccnc(Nc2ccc(C#N)cc2)n1,-0.23
CN(C)CC/C=C1/c2ccccc2Sc2ccc(Cl)cc21,110
c1ccc2c(CC3=NCCN3)cccc2c1,115
NC(=O)N[C@@H](CCC(=O)O)C(=O)O,84.3
C[C@H](Cn1cnc2c(N)ncnc21)OCP(=O)(O)O,119

# Study 4
# Cell line: HaCaT
# Concentration: 100 µM
# Time: 18 h
Compound,viability
COc1ccc(OC)c([C@@H](O)[C@H](C)N)c1,110%
CCCCC(C#N)(Cn1cncn1)c1ccc(Cl)cc1 (stereo not drawn),64.7%
Nc1nc(N)nc(NC2CC2)n1,91.5%
CCN(CC)C(C)C(=O)c1ccccc1 (stereo not drawn),110%

# Study 5
# SMILES: CC(C)(C)c1cc(C=C(C#N)C#N)cc(Br)c1O
# Observed: enzyme activity
# Mode: inhibitor
# Concentration: 0.5 µM
target,reference,remaining activity
"HIPK3 (Homo sapiens, UniProt Q9H422)",,98.2%
"TEC (Homo sapiens, UniProt P42680)",control,171%
"PIM3 (Homo sapiens, UniProt Q86V86)",,89.1%
"Cyclin-dependent kinase 9, with cyclin T1 (CDK9, Homo sapiens, UniProt P50750)",,95.4%
"OXSR1 (Homo sapiens, UniProt O95747)",,98%
"Cyclin-dependent kinase 7, with cyclin H (CDK7, Homo sapiens, UniProt P50613)",,98.5%
